{"data": "Measured values from different studies", "note": "Compare with care: the assays were run in different laboratories.", "chain of UniProt Q8N4C8 (whole entry, looked up)": "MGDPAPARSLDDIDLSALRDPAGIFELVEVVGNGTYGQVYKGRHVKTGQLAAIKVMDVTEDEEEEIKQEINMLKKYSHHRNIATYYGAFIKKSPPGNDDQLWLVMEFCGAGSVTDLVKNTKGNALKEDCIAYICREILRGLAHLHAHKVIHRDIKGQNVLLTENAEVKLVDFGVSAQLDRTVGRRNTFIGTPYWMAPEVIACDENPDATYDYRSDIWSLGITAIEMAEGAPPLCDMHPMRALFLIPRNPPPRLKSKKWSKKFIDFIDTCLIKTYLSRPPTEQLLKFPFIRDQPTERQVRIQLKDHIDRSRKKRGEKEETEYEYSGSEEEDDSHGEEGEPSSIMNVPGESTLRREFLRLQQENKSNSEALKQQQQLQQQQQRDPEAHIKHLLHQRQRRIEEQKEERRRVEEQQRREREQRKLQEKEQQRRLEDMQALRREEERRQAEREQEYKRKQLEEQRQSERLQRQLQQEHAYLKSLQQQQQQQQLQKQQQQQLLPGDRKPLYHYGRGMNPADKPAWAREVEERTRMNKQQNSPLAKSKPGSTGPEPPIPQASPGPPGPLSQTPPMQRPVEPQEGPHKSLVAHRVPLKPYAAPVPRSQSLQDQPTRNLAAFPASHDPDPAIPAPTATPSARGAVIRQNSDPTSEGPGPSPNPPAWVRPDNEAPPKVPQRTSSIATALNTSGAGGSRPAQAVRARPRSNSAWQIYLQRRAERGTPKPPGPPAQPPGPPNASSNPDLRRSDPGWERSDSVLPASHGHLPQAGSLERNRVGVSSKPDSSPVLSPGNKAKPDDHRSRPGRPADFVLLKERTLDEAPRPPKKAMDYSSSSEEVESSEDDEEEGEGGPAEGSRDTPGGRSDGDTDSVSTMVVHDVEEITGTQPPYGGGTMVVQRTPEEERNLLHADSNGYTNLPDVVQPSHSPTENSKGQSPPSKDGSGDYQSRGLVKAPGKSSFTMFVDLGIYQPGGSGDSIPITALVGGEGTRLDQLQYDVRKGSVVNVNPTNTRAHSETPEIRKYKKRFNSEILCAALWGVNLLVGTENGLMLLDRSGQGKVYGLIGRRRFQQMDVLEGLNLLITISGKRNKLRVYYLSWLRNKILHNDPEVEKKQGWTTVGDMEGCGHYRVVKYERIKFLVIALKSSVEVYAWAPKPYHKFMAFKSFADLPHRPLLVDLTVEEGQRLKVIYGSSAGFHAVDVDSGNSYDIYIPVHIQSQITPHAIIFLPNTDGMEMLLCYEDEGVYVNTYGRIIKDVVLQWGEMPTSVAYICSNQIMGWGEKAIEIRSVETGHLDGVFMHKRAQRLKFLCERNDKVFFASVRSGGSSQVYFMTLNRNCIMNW", "chain of UniProt Q12866 (whole entry, looked up)": "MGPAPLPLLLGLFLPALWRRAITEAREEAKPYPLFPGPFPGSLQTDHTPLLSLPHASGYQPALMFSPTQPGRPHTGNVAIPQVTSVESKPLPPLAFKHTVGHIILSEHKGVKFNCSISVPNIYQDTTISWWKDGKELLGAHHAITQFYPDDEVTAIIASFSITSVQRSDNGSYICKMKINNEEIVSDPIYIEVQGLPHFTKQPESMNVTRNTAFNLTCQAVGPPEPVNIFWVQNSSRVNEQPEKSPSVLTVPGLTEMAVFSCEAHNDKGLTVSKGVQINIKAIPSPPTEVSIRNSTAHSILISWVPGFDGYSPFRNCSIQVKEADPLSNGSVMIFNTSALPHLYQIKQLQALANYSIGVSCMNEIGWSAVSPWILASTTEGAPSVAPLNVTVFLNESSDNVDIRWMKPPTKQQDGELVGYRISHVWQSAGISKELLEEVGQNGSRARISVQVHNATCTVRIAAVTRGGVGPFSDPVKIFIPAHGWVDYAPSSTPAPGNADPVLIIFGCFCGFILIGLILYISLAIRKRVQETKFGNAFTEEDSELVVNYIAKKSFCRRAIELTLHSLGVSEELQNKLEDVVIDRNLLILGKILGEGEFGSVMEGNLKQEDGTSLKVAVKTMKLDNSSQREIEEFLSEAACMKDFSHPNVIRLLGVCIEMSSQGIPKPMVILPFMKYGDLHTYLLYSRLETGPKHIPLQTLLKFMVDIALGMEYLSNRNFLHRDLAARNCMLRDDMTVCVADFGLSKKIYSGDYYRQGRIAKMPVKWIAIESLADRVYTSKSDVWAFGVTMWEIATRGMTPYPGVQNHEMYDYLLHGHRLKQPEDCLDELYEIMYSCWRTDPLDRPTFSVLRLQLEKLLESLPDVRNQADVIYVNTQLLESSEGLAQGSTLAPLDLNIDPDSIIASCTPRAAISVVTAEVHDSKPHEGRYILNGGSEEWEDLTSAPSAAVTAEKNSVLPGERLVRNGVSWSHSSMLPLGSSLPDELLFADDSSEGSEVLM", "chain of UniProt P07711 (whole entry, looked up)": "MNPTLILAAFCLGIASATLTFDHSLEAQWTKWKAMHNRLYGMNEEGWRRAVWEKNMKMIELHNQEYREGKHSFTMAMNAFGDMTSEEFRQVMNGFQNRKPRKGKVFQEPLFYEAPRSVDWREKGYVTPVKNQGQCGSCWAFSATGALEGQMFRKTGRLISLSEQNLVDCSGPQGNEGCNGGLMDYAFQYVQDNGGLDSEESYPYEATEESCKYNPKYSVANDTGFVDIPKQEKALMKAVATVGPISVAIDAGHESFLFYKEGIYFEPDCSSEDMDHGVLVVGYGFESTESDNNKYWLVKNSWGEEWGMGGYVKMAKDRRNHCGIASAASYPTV", "chain of UniProt Q9H3Y6 (whole entry, looked up)": "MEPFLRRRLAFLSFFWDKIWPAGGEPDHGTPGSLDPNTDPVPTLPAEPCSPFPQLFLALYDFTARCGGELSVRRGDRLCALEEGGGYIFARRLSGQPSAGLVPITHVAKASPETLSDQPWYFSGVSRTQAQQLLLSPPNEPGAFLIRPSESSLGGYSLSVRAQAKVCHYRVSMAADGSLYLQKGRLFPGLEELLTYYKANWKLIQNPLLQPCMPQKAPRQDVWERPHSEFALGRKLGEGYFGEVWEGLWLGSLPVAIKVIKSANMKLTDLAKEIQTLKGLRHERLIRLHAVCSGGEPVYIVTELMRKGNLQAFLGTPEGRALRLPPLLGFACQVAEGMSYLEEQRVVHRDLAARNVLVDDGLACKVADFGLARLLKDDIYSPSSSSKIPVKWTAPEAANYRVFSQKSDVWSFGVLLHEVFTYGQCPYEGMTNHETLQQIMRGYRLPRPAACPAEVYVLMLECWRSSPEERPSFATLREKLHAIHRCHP", "chain of UniProt Q9Y2H9 (whole entry, looked up)": "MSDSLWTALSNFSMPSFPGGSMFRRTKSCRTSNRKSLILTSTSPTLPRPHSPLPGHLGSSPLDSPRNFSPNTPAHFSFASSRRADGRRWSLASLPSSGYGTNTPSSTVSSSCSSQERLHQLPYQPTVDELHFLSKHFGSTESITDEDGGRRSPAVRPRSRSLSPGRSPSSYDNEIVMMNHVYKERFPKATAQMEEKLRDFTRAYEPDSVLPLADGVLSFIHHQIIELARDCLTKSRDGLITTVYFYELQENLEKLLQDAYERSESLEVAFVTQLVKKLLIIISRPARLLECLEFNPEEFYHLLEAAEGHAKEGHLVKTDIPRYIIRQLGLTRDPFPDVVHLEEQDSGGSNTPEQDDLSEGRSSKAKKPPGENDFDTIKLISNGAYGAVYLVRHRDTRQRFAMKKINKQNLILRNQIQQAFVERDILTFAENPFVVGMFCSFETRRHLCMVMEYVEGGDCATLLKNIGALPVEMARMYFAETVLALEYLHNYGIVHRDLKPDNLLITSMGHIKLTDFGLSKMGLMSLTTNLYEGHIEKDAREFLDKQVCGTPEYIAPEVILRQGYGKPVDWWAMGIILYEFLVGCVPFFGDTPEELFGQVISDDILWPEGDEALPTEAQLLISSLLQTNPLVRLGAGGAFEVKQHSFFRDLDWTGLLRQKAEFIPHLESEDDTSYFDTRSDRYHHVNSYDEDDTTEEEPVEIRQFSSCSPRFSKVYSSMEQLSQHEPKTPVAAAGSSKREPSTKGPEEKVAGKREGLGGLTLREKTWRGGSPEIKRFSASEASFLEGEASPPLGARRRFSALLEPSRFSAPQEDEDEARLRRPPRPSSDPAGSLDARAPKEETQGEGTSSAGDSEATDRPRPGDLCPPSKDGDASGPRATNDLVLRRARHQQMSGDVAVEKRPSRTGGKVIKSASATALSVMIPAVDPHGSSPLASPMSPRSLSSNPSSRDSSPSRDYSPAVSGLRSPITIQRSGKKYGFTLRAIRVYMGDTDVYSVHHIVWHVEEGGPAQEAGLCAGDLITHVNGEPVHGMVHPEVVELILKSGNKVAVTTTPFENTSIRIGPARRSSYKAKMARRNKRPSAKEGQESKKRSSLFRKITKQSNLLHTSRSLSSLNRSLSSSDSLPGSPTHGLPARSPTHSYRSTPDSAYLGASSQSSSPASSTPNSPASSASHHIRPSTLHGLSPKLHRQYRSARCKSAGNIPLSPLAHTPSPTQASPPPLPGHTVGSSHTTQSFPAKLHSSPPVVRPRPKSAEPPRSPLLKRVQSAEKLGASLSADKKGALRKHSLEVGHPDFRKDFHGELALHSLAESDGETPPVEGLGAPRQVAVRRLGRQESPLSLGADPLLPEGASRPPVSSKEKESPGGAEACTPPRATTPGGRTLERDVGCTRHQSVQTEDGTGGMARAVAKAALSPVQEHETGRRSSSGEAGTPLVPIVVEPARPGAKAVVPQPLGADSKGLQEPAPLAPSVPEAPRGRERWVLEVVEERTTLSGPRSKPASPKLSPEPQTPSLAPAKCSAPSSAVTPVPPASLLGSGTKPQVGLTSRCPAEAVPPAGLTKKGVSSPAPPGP", "chain of UniProt O75716 (whole entry, looked up)": "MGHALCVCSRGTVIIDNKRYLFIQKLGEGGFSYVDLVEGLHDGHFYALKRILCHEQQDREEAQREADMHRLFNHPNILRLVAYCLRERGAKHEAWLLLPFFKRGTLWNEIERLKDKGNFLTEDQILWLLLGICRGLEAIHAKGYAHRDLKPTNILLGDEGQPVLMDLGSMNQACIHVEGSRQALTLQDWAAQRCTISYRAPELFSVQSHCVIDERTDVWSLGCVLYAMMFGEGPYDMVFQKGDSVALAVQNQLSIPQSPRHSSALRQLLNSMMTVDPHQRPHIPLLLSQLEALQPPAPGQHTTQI"}
{"SMILES": "Nc1ncnc2occ(-c3ccc(NC(=O)Nc4cc(C(F)(F)F)ccc4F)cc3)c12", "target or system": "Microtubule-associated serine/threonine-protein kinase 1 (MAST1, Homo sapiens, UniProt Q9Y2H9)", "test": "cell-free assay, inhibitor", "setting": "20 µM", "quantity": "remaining signal", "result": "74%"}
{"SMILES": "CC(=NNC(N)=S)c1ccc(Nc2nnc(-c3ccc(Cl)cc3)c3ccccc23)cc1", "target or system": "MCF7", "test": "cell growth or viability, MTT", "setting": "78 nM, 24 h", "quantity": "viability", "result": "90.3%"}
{"SMILES": "Cc1cc([C@@H](C)Nc2ccccc2C(=O)O)c2nc(N3CCC(F)(F)CC3)c(C#N)c(=O)n2c1", "target or system": "Serine/threonine-protein kinase PAK 1 (PAK1, Homo sapiens, UniProt Q13153)", "test": "binding, competition with immobilised ligand", "setting": "10 µM", "quantity": "remaining binding", "result": "100%"}
{"SMILES": "COc1cccc(-c2n[nH]c(SCc3ccccn3)n2)c1OC", "system": "male Sprague-Dawley rat, plasma", "setting": "oral, 100 mg/kg, 2 h, single dose", "quantity": "concentration", "result": "24800 ng/mL"}
{"SMILES": "COc1ccc(C[C@H](N)C(=O)N[C@H]2[C@@H](O)[C@H](n3cnc4c(N(C)C)ncnc43)O[C@@H]2CO)cc1", "target or system": "Procathepsin L (CTSL, Homo sapiens, UniProt P07711)", "test": "enzyme activity, inhibitor", "setting": "100 µM", "quantity": "remaining activity", "result": "131%"}
{"SMILES": "C=CC(=O)N1CCC(COCC(=O)N2CCN(c3nc(-c4cnc(N)nc4C(F)F)nc(N4CCOC[C@@H]4C)n3)CC2)CC1", "target or system": "Serine/threonine-protein kinase 16 (STK16, Homo sapiens, UniProt O75716)", "test": "binding, competition with immobilised ligand", "setting": "1 µM", "quantity": "remaining binding", "result": "100%"}
{"SMILES": "O=c1nc(N2CCN(CC3CCCCC3)CC2)sc2c([N+](=O)[O-])cc(C(F)(F)F)cc12", "system": "CD-1 mouse, lung", "setting": "oral, 100 mg/kg, 1 h", "quantity": "concentration", "result": "383 ng/mL"}
{"SMILES": "C1=C/COCc2cc(ccc2OCCN2CCCC2)Nc2nccc(n2)-c2cccc(c2)COC/1", "target or system": "Hormonally up-regulated neu tumor-associated kinase (HUNK, Homo sapiens, UniProt P57058)", "test": "binding", "setting": "0.1 µM", "quantity": "remaining binding", "result": "100%"}
{"SMILES": "Nc1ccn([C@@H]2O[C@H](CO)[C@@H](O)C2(F)F)c(=O)n1", "target or system": "MCF7", "test": "cell growth or viability, MTT", "setting": "2.5 µg/mL, 48 h", "quantity": "viability", "result": "39.8%"}
{"SMILES": "CNc1ncc2c(/C=C/C(=O)N3CCC(OC)CC3)nn(Cc3cccc(C(F)(F)F)c3)c2n1", "target or system": "Misshapen-like kinase 1 (MINK1, Homo sapiens, UniProt Q8N4C8)", "test": "enzyme activity, inhibitor, radiometric", "setting": "1 µM", "quantity": "remaining activity", "result": "85%"}
{"SMILES": "CCCCC(=O)Nc1ccc(-c2ccc3ncn(CCC)c(=O)c3c2)cn1", "target or system": "Tyrosine-protein kinase Mer (MERTK, Homo sapiens, UniProt Q12866)", "test": "binding, competition with immobilised ligand", "setting": "0.5 µM", "quantity": "remaining binding", "result": "100%"}
{"SMILES": "COc1cc(-c2cncc3c2CN(C)Cc2cc(N4CCNCC4)ccc2-3)cc(OC)c1OC", "target or system": "Tyrosine-protein kinase Srms (SRMS, Homo sapiens, UniProt Q9H3Y6)", "test": "enzyme activity, inhibitor", "setting": "1 µM", "quantity": "remaining activity", "result": "117%"}
{"note": "Repeated from above:"}
{"SMILES": "C1=C/COCc2cc(ccc2OCCN2CCCC2)Nc2nccc(n2)-c2cccc(c2)COC/1", "target or system": "Hormonally up-regulated neu tumor-associated kinase (HUNK, Homo sapiens, UniProt P57058)", "test": "binding", "setting": "0.1 µM", "quantity": "remaining binding", "result": "100%"}
{"SMILES": "Cc1cc([C@@H](C)Nc2ccccc2C(=O)O)c2nc(N3CCC(F)(F)CC3)c(C#N)c(=O)n2c1", "target or system": "Serine/threonine-protein kinase PAK 1 (PAK1, Homo sapiens, UniProt Q13153)", "test": "binding, competition with immobilised ligand", "setting": "10 µM", "quantity": "remaining binding", "result": "100%"}
